Measured values collected from several papers.
A part holds a random share of what one study measured. Positions count from the first letter of the parent shown.

Set 1 — target: CCNE2, cyclin fold, Cln2 fusion (human); technique: yeast growth competition, sequencing; medium: yeast; setting: weak parent motif; reference: not given; reading: higher = stronger binding
Starting sequence: WEE2 docking peptide (human); KELRQKLNFSYCE
Variant | normalised enrichment score
KALRQKLNFSYCE [E2A] | 0.331
KELRQKLNFSYAE [C12A] | -0.221
KELRQKLAFSYCE [N8A] | 0.494
AELRQKLNFSYCE [K1A] | -0.199
KELRAKLNFSYCE [Q5A] | 0.302
KELRQKLNASYCE [F9A] | 0.427

Set 2 — technique: protein-binding microarray; form: double-stranded DNA, one strand shown; medium: in vitro; tested at: 2540 nM top; setting: 60-bp whole probe; added: salmon DNA 0.4 mg/ml; reference: random background probes; reading: higher = stronger binding; constant ends, left off below: GCCTAGCAC … GTCTTGATTCGCTTGACGCTGCTG
Target: Interferon regulatory factor 3, full length, phosphomimetic (IRF3, Homo sapiens, UniProt Q14653, residues 1-427, S386D/S396D/S398D/S402D/T404D/S405D)
Construct (chain): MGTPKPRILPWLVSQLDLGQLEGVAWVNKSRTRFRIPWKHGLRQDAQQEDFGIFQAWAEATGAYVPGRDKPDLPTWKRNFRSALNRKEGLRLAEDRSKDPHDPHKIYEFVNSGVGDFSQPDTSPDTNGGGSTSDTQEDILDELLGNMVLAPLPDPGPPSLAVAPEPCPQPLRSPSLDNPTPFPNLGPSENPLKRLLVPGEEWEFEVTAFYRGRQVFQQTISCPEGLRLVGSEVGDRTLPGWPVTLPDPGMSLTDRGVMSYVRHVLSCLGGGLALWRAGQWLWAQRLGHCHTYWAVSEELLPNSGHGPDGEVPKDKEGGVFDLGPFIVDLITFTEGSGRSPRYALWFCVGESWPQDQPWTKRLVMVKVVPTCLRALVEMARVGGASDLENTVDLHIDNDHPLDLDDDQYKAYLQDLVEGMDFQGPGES
Sequence | fitted relative affinity
TTAGGTCTTGGTATCGGTTAGTGCTAG | 1.41 z-score
TTAGGTTTCGAACTGGGTTAGTGCTAG | 2.78 z-score
TTAGGACTGGGGTATGGGTTAGTGCTA | -1.08 z-score
TTATTTTTTTTATTTATAAAGTGCTAG | 1.48 z-score
TTAGCTATCAGTCTCGATTAGTGCTAG | 1.41 z-score
TTAGCACTGCTTTTCCTTTAGTGCTAG | 0.575 z-score
TTAGGTTTCGGGACTCGGTTAGTGCTA | 4.15 z-score
GACGGTATCGGGTTTCCGGACGTGCTA | 3.31 z-score
TTAGGTATCCTTTTCCCTTAGTGCTAG | 8.72 z-score
GGGTGGGAGCCGAAGACGCCGTGCTAG | -0.834 z-score
GACGGTCTCGCTCTCGGGACGTGCTAG | 0.57 z-score
GTTTCTTTTCTTTTCTTTTTGTGCTAG | 7.05 z-score
GATGGACTGGGTTTCGGGACGTGCTAG | 1.06 z-score
GACGATTTCGGGACTGGAGCCGTGCTA | 1.74 z-score
GACTGTATCGGTTTCGGGACGTGCTAG | 7.27 z-score
TTAGGACTTGACTTTCGGTTAGTGCTA | 1.16 z-score
TTAGCTCTCAGTTTCGATTAGTGCTAG | 3.2 z-score
TTAGGACTGCTACTGTTTTAGTGCTAG | -0.244 z-score

Set 3 — technique: RNA Bind-n-Seq; form: RNA; medium: in vitro; tested at: 200 nM; setting: whole 134-nt RNA, ends assumed; added: 150 mM KCl; reference: input library; reading: higher = stronger binding
Target: Ras GTPase-activating protein-binding protein 1, full length (G3BP1, Homo sapiens, UniProt Q13283)
UniProt Q13283, sequence (whole entry, looked up): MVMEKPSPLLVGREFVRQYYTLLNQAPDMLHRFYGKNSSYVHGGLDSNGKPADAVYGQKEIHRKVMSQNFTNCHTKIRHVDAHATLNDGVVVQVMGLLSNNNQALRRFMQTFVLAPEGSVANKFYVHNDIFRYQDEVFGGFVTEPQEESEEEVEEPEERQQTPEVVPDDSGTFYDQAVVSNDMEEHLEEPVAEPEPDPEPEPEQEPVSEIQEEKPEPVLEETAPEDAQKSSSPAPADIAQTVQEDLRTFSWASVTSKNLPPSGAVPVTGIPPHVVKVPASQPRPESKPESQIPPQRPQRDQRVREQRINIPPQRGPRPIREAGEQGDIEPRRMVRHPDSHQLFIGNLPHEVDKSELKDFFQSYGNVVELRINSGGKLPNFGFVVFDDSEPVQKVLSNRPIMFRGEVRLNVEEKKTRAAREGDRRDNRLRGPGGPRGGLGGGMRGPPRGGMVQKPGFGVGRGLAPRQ
Constant ends, left off below: GGGAGUUCUACAGUCCGACGAUC … UGGAAUUCUCGGGUGUCAAGG
Sequence | log2 enrichment
UGGCCCUGGUGGCAUGCGGGGAGGAAGAGGUGGGCUCAUGGAUCGUGGUGGUCCCGGUGGAAUGUUCAGAGGUGGCCGUGGUGGAGACAG | 0.624
UGGGAGGUGGAUUUUGUCUAUUUUUUUAGCUCAUUUCCAGGGGUGGGAAUUUUUUUUUAAUAUGUGUCAUGAAUAAAGUUGUUUUUGAAA | 0.0686
UCCUCAAGUCCUGUGCUACACAUCGUAUGUACCGAAUCGGUGGGUGGGUGGGAAAGUAUUAUGUUACGCCGUUCGGAUCUGCACUUCCAG | 1.35
CAAGUCCUGUGCUACACAUCGUAUGUACCGAAUCGGAAAAAAAGGUGGAAAAAGGAAAGUAUUAUGUUACGCCGUUCGGAUCUGCACUUC | -1.15
UGGAUUUUCAAGACACGAAUGCUCGGAGUCUGGCAGAAAGGAAGAGAGAAGAGGAGAAGCAGAAGCACUUGGAUAAAAUUUAUCAAGAAA | -0.436
ACCAUGCAGGUGGGUAUCUUUGGGAAGUGGGGCAAGGGGGGGAUAGGGAGGGGGGUAACACUUUGGGAACAGGUGGUCCCAGGUCGUUUC | 1.04
AAGUCCUGUGCUACACAUCGUAUGUACCGAAUCGGUUUUUUUGGAAAGGUUUUUGGAAAGUAUUAUGUUACGCCGUUCGGAUCUGCACUU | -1.4
GUCCUGUGCUACACAUCGUAUGUACCGAAUCGGGUUUUUUUGGGAAAGGGUUUUUGGGAAAGUAUUAUGUUACGCCGUUCGGAUCUGCAC | -0.546
AAGUCCUGUGCUACACAUCGUAUGUACCGAAUCGGGUUUUUGGGAGGGAAAAAGGGAAAGUAUUAUGUUACGCCGUUCGGAUCUGCACUU | 0.00325
CACAGACAACACGCACCCACACAGACACAGAGGGAAGGGGUUGGGAUGGGGACAGGGUGCACAGCAGGGCGGGGUAGGACCCCAGCCCAU | 1.93
AGUCCUGUGCUACACAUCGUAUGUACCGAAUCGGGGAAAAAGGGGUUUGGGGUGGGGAAAGUAUUAUGUUACGCCGUUCGGAUCUGCACU | 0.618
AAGUCCUGUGCUACACAUCGUAUGUACCGAAUCGGGGUUUUGGUUUUGGGGUUUUGGAAAGUAUUAUGUUACGCCGUUCGGAUCUGCACU | -0.763
CUCAAGUCCUGUGCUACACAUCGUAUGUACCGAAUCGGUUUUUGGUUUGGUGGAAAGUAUUAUGUUACGCCGUUCGGAUCUGCACUUCCA | -0.645
AGUCCUGUGCUACACAUCGUAUGUACCGAAUCGGGAAAAAAAGGGAAAAAGGGUGGGAAAGUAUUAUGUUACGCCGUUCGGAUCUGCACU | 0.0759

Set 4 — technique: RNA Bind-n-Seq; form: RNA; medium: in vitro; tested at: 365 nM; reference: no-protein control; reading: higher = stronger binding
Target: RNA binding protein fox-1 homolog 2, RRM domain, GST-SBP tag (RBFOX2, Homo sapiens, UniProt O43251-10, residues 100-194)
Setting: natural RNA segment, single round, ends assumed
Constant ends, left off below: GGGAGUUCUACAGUCCGACGAUC … UGGAAUUCUCGGGUGCCAA
Construct (chain): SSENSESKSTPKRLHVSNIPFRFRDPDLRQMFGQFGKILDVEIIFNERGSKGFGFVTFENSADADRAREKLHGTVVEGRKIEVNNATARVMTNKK
Sequence | RBNS enrichment (R)
CUCAGGCACCCCCUCACUGCUCCCUCUUGAAAGGGUUGCUAGCCUUAACUUCAGCUGGUGCGAAACAUCUGACUGUUGUCAGACUCCAGCCAUCUGCUCCUGCAGCGUGC | 0.294
CCCUCUUCUGAAACAGGAUGUGCACACAUGGGCCAUAGCCCUAAGGACUCCUGCCAGACCACACAGCCCACACCUGGCCCUGUUCACGGCUGUUCCACCCACCCCUCUUU | 0.496
UUUGUUUUAACUGUGGAUUUAUUGAUUGCUAACCUCUACAGAUAUGAUGAUAGGGCAAGCAUUCUUCUAAUCGAUUUUAAUUGUCCUUUGUGUGAAAAACAAAACAAAAC | 0.785
AAACAUCUACUUCUCAGUCUAAGGCACACUAAGUACUAGUAGCAAGCCUGUGAGCCUAGGAGACUGUGUGUGUGAGGUAAAGGGUGUAGUGGUGGCCUGGGCUGCUGAUG | 0.867
GCUUGCAUUAUUGAUUUCCAGGACCAAGUCCUGGCUUCCUCCUGCCUUCCUGAGAUGAUGUUCUGCUCAGGGAGAAGUGGAGGGGUGAGCUGUGUGUGUCCACCGAGGCA | 6.12
UUAUAUGACUAAACUACUAGUCAAUACAGCUUGCAAUAAUAGUGCAUGAAUGAUAACAGGCCUCGGCUUUAUCACCCAAAAAAUAACUUGAAUUCUAUGUGAAAUGUGUU | 5.89
AGGAGUCCAAACAGGGAUGCCAGAGGAAGCUUUCCGUUUUCCUAGCCAACUUGUGUUCUGGGUUUGAAAAAGACCCACCACAAAUGCUUUUUCUAUUUUCUGAUUUAAAA | 0.332
CCUCUGCCUCUAUUUCCCAGGACACCUAGAGGAUUCCCUUCUGAACCACCCCAGUGGGGUCUACCUGGGCCGGGACACACUGUACCCACCAUGUGGGGAGCGGGAGCAGG | 0.401
CCCAUUAGUGGAGGAUAGUGCUUUUGAGCCAUCUAGGAAAGAUAUGGAUGAAGUUGAAGAGAAAUCUAAAGAUGUUAUAAACUUUACUGCCGAGAAACUUUCAGUAGAUG | 0.505
UGUGUGUGUUUUGACACAAAAACAAUGCAAGCAUGUGUCAUCCAUAUUUCUCUGCAUCUUCUCUUGGAGUGAGGGAGGCUACCUGGAGGGGAUCAGCCCACUGACAGACC | 2.16
AUAUUGACAAGCUAGGACACCUGUGGUAUCUUUAAUUGUAUCUCCUUCAGAAGUUUGCUUCUUAUGGUAUAAUAAAGUAUGGAAGAAUAUUGAGUAUAUGUUUACUCUGG | 0.348
UAAAUUUAAAGAUCACCUCUCUGCAUUUGUUUUUAAAUUAUGCUAAUACACCACACAUUAUGUUGGUAUGUUUUGUUCUGUACUUUCUUUAAAAAAAAAAAAAAAACUUG | 1.98

Set 5 — technique: DHFR PCA, deep sequencing; medium: yeast; added: (+)-ABA 710 µM; reference: wild-type fitted maximum; reading: higher = stronger binding
Target: ABI1, truncated, D143A, DHFR fusion (Arabidopsis thaliana)
Setting: methotrexate growth selection, single substitutions
Starting sequence: PYL1, truncated, DHFR fusion (Arabidopsis thaliana); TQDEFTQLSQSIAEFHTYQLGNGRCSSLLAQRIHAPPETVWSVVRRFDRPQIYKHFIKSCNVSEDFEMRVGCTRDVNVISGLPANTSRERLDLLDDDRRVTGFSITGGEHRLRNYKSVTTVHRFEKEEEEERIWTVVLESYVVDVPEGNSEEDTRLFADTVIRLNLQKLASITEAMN
Variant | relative binding score
R24L | 99.4%
F103N | -26.7%
K116L | 47.1%
N61D | 98.2%
R88C | 103%
T86H | 111%
V43E | 56.2%
E4A | 97.7%
V143W | 1.65%
R132Q | 115%
L8E | 82.8%
R32F | 83.9%
I172T | 87.8%
L28W | 91.8%
D144A | 82.4%
E67C | 97.4%
R32M | 94.3%
H110S | 77.1%

Some of these lines once more (set 3):
Sequence | log2 enrichment
UGGCCCUGGUGGCAUGCGGGGAGGAAGAGGUGGGCUCAUGGAUCGUGGUGGUCCCGGUGGAAUGUUCAGAGGUGGCCGUGGUGGAGACAG | 0.624
UGGGAGGUGGAUUUUGUCUAUUUUUUUAGCUCAUUUCCAGGGGUGGGAAUUUUUUUUUAAUAUGUGUCAUGAAUAAAGUUGUUUUUGAAA | 0.0686
UCCUCAAGUCCUGUGCUACACAUCGUAUGUACCGAAUCGGUGGGUGGGUGGGAAAGUAUUAUGUUACGCCGUUCGGAUCUGCACUUCCAG | 1.35
CAAGUCCUGUGCUACACAUCGUAUGUACCGAAUCGGAAAAAAAGGUGGAAAAAGGAAAGUAUUAUGUUACGCCGUUCGGAUCUGCACUUC | -1.15
UGGAUUUUCAAGACACGAAUGCUCGGAGUCUGGCAGAAAGGAAGAGAGAAGAGGAGAAGCAGAAGCACUUGGAUAAAAUUUAUCAAGAAA | -0.436
ACCAUGCAGGUGGGUAUCUUUGGGAAGUGGGGCAAGGGGGGGAUAGGGAGGGGGGUAACACUUUGGGAACAGGUGGUCCCAGGUCGUUUC | 1.04
AAGUCCUGUGCUACACAUCGUAUGUACCGAAUCGGUUUUUUUGGAAAGGUUUUUGGAAAGUAUUAUGUUACGCCGUUCGGAUCUGCACUU | -1.4
GUCCUGUGCUACACAUCGUAUGUACCGAAUCGGGUUUUUUUGGGAAAGGGUUUUUGGGAAAGUAUUAUGUUACGCCGUUCGGAUCUGCAC | -0.546
